Measurements of several laboratories.
Every numbered part comes from another study and shows a few of its results, in no order.

Study 1
Target: Interferon regulatory factor 5, full length, phosphomimetic (IRF5, Homo sapiens, UniProt Q13568-2, residues 1-514, K96S/S451D/S453D/S456D/S462D)
Method: protein-binding microarray
Form: double-stranded DNA, one strand shown
Sample: in vitro
Concentration: 250 nM
Notes: 60-bp whole probe
Together with: salmon DNA 0.4 mg/ml
Relative to: random background probes
Reading: higher = stronger binding
Shared flanks, not repeated: GCCTAGCAC … GTCTTGATTCGCTTGACGCTGCTG
`TTAGGTATCCTTCTCGTTTAGTGCTAG` gave a log fluorescence of 0.546 z-score.
For `TTGGGTTTCGGGACTGGGTTAGTGCTA`, the log fluorescence was 4.76 z-score.
With `TCAGGTATGGCCTATTTAACTGTGCTA` the log fluorescence was -0.338 z-score.
`TTACAACTGAGTCTCGATTAGTGCTAG` gave a log fluorescence of 1.08 z-score.
For `GACGATTACGGGTATCGAGACGTGCTA`, the log fluorescence was 0.677 z-score.
For `TTAGGTAACGGTATCGGTTAGTGCTAG`, the log fluorescence was 4.5 z-score.
With `GACGGTATCCTATTCCTGACGTGCTAG` the log fluorescence was 0.0653 z-score.
With `CTTTTTTTTTTTTTTTTTTGGTGCTAG` the log fluorescence was 1.13 z-score.
For `TCTCTCCCTTTATCTCTTTTGTGCTAG`, the log fluorescence was 0.988 z-score.
For `GACGGTTTCGCGACTGGGGACGTGCTA`, the log fluorescence was 1.01 z-score.
For `TCAGCTCACACCTGTCATACTGTGCTA`, the log fluorescence was -0.173 z-score.
`GACGGTTCCCTTTTCCTGACGTGCTAG` gave a log fluorescence of 0.131 z-score.
For `TTAGGTCGCCTTATCCTTTAGTGCTAG`, the log fluorescence was -0.226 z-score.
For `GACCAACTGAGACTGGAGACGTGCTAG`, the log fluorescence was -0.193 z-score.
For `CTGCATTTTTTTTTTCTACTGTGCTAG`, the log fluorescence was 0.938 z-score.
For `GACGAACCGAGACTGGAGACGTGCTAG`, the log fluorescence was -0.0903 z-score.
For `GACGGTTTCCTTACCCTGACGTGCTAG`, the log fluorescence was 0.478 z-score.
`TTAGACATCAGACTGGATTAGTGCTAG` has a log fluorescence of -0.154 z-score.
The log fluorescence of `CCAGTGCTGCTTTGTCAAGAGTGCTAG` is reported as -0.39 z-score.

Study 2
Target: RNA binding protein fox-1 homolog 2, RRM domain, GST-SBP tag (RBFOX2, Homo sapiens, UniProt O43251-10, residues 100-194)
Method: RNA Bind-n-Seq
Form: RNA
Sample: in vitro
Concentration: 365 nM
Notes: natural RNA segment, single round, ends assumed
Relative to: no-protein control
Reading: higher = stronger binding
Shared flanks, not repeated: GGGAGUUCUACAGUCCGACGAUC … UGGAAUUCUCGGGUGCCAA
Residues (chain): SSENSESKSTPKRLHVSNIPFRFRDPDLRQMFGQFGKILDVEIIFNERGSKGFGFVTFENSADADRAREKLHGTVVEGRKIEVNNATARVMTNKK
`CAGUGUAGUCUCAAUUAUAUCUGAAAGUAAUUGUGACUAACAAGUAUGCUUUGCCUUAUUUCCACAUUUAAACUACCUGUUAAUAUAAGGGAUUUGUAGUAUCAGCUUGU` — result for “RBNS enrichment (R)”: 0.37.
`GGCCCCAGGGACUCCUGUCAUCUGGUACUCUCCCUCUUACAGAGGAGAGAGCUAGUGGCUUAAAAGGCCUGGGGUGGUGGGGAGAUCACACCACUCUCAACCAUACUCUG`: “RBNS enrichment (R)” 0.248.
`CAGUCUGUCCUGUGCUGUGUGACCUUGGACAAGGCGCUUCAUCUCUCUGGGCCUCUAUUUCUCCAUUUGUAAAACAAGUGGCUGCAGUAGAUGAUGGCUGAGAGCCCUUC`: “RBNS enrichment (R)” 0.23.
Under “RBNS enrichment (R)”, `GCAUCAAUAAAUCCAUUAUCCAGUUUUUGAAAAAUCAACUCCAAGGACUGGGUUUAUCUUUCAGUUGACAAAAAUCCAAGUUGUCUUUUGCUAGAAUAAAGCAGAAGGGC` is recorded as 0.33.
For `AUUGCAUCAGUUUUCCUGUUUGCACUAUUUCUUUUUGUAACAUUGGCCCUGUGUGAAGUAUUUCGAAUCUCCUCCUUGCUCUGAAACUUCAGCGAUUCCAUUGUGAUAAG`, “RBNS enrichment (R)” read 0.411.
`AAUACUUGUCGCUCUGGGGUUUUGUCUUGUUGAGGAGAGGACAGCAGUUUCUGGACCAUGUUAUCACCUGUGUGUGUCUCAUAUCUUGGAAAUUGACAGAUUUGGUGAAU` — result for “RBNS enrichment (R)”: 1.4.
`UAAACCACAGUCUGGAGUGAUAGCUACUGUAGAAAGGAAAUAGACUUUGUAUGAACUCUUUAAGUUGAAAAGUAAAAAAUAUAUGUGGUUUGGAUGUGUGCUUUAAUUCA`: “RBNS enrichment (R)” 2.27.
`CCCAGACACCAGCUCCUCUGGCCUGGACUCAACUAUUGAAAUCUCUCUGAGACCUCUGCAAAGAUGUCCCUUUUAUGCCCUUGACCUUGACUCACCAUGGGCUGCUGGGG` — result for “RBNS enrichment (R)”: 0.258.
`CUUGUCCGUUCGUCUUACCAUCUAACCAAACAAAAGACAAAGAAAUUGUUGUCCUCCAACUCAGCUUUUUUUUUUUUUUUUUCCUGUUUGGGUGAAAGUGGUUCUAGAAA` — result for “RBNS enrichment (R)”: 0.323.
`AGCCUUGUAGCAGGCUUUGGUGACUGUGUUUAUGGAUAGGUCAAGUUUACUGCAAGACAGCUGCGCUGUCAAGACUGAGCUGGCUUCAGGCUGUGUCCGAGCUGUGUCAC` — result for “RBNS enrichment (R)”: 0.657.
`CAGUGCCUGAGACUUUCCUGCCACGCUGCAGACAGUGGCAGUUGGUAGCAUGGGUGGUUCAUCAGAGCAGUGGUGGCUCUUGCCUGGCAGUCAGCCCCUUCAAGUCUGGA` — result for “RBNS enrichment (R)”: 1.04.
`AUAAGAAGAACGUUACACGGAAAUCACCAAAUAUUUUGCAACUUUAUUUCUUCUGACAUGGAGUGAACAUCAAUAGGAAUACUUUCAAAGAAAAUGAAAACACAGAAGCA`: “RBNS enrichment (R)” 1.29.

Study 3
Target: Histone acetyltransferase KAT6A, winged helix 2, GST fusion (KAT6A, Homo sapiens, UniProt Q92794, residues 85-181)
Method: protein binding microarray
Form: double-stranded DNA, one strand shown
Sample: in vitro
Concentration: not given
Notes: 8-mer, flanks averaged, mean of 2 arrays, mostly near background
Relative to: not given
Reading: higher = stronger binding
Construct (chain): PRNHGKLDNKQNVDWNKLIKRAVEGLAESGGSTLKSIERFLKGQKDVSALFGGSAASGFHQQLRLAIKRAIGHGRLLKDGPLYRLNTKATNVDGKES
`CTTGCATA` gave an E-score of -0.0274.
With `TTAGGGAA` the E-score was -0.106.
For `CGCAGTGA`, the E-score was 0.117.
For `ATATGGAG`, the E-score was -0.013.
The E-score of `GATAACAC` is reported as -0.152.
The E-score of `TAGCCAGA` is reported as -0.02.
`AAGAGTTG` has an E-score of -0.0352.
`AGTTCGAA` gave an E-score of 0.109.
The E-score of `TAATCAAA` is reported as 0.0918.
`CTCAATCC` gave an E-score of 0.0634.
With `GACAGCGC` the E-score was 0.158.

Mixed results
For `PhoQ, residues 284 288 289 292 302 303 TLMATV`, the fold induction was 1.38 (PhoP, residues 12 14 15 18 19 LHATL (Escherichia coli, UniProt P23836); Sort-seq, item: YFP reporter; E. coli; PhoQ-PhoP variant library, together with: 10 µM Mg2+; relative to: high Mg2+ state, higher = stronger signaling).

Excerpt of the above (study 3):
`CTTGCATA` gave an E-score of -0.0274.
For `ATATGGAG`, the E-score was -0.013.
The E-score of `GATAACAC` is reported as -0.152.
`AGTTCGAA` gave an E-score of 0.109.
The E-score of `TAGCCAGA` is reported as -0.02.
